Measured values gathered from unrelated publications.
Compare with care: the assays were run in different laboratories. Several values in a cell are separate wells, animals, samples, runs or records. ± gives the spread as reported.
Sequence of UniProt P55211 (whole entry, looked up): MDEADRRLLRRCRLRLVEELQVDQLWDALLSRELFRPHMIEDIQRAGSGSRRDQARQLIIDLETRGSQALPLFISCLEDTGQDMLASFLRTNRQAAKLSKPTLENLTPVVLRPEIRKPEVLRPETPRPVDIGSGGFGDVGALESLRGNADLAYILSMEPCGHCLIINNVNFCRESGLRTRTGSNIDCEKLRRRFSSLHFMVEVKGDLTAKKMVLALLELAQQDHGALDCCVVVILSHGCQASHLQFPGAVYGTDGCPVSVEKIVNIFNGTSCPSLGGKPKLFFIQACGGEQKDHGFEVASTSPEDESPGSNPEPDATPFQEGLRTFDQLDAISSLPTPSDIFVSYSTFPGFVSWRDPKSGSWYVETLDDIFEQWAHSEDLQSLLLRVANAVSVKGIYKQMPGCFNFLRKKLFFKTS
Sequence of UniProt Q13310 (whole entry, looked up): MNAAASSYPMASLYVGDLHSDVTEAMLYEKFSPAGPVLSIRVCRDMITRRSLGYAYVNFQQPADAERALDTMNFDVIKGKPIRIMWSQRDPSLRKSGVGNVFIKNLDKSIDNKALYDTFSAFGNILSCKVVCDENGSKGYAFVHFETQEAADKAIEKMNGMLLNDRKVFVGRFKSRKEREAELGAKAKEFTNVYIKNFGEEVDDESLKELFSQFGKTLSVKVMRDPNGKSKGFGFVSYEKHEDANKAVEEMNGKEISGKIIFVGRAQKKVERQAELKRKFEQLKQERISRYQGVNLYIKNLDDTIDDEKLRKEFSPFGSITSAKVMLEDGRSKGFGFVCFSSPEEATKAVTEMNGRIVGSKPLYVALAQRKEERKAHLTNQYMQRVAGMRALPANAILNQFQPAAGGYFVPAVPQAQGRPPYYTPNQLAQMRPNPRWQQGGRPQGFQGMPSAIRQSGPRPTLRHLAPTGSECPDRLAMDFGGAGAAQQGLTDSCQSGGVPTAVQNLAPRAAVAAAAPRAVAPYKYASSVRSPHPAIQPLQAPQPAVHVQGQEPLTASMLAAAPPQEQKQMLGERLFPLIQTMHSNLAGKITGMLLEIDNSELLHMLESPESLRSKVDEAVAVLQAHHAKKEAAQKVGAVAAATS

| Structure (SMILES) | target or system | assay | test system | setting | scale | endpoint | value |
| --- | --- | --- | --- | --- | --- | --- | --- |
| N=C(N)NCCC[C@H](NC(=O)[C@H](CCCNC(=N)N)NC(=O)[C@H](CCCNC(=N)N)NC(=O)[C@H](CCC(N)=O)NC(=O)[C@H](CCCNC(=N)N)NC(=O)[C@H](CCCNC(=N)N)NC(=O)[C@H](CCCCN)NC(=O)[C@H](CCCCN)NC(=O)[C@H](CCCNC(=N)N)NC(=O)CNC(=O)[C@@H](N)Cc1ccc(O)cc1)C(=O)O | DF-1 | LDH release | – | 3 µM, 1 h | – | viability | 98.6 ± 2.14% |
| Brc1ccc(/C=C2/CNCC3=C2N=C2SC=C(c4ccc5ccccc5c4)N2C3c2ccc(Br)cc2)cc1 (stereo not shown) | SH-SY5Y | MTT | – | 0.2 to 40 µM, 24 h | – | viability | not toxic |
| CC[C@H](C)[C@@H]1NC(=O)[C@@H]2CCCN2C(=O)[C@H](CC(C)C)NC(=O)[C@H](CC(C)C)NC(=O)CNC(=O)[C@@H](NC(=O)[C@@H](NC(=O)[C@H](CC(=O)O)NC(=O)CNC(=O)[C@@H](NC(=O)[C@H](C)NC(=O)CNC(=O)[C@H](CCCCN)NC(=O)[C@H](CC(C)C)NC(=O)[C@H](CC(C)C)NC(=O)[C@H](CCCCN)NC(=O)CNC(=O)[C@@H](NC(=O)[C@@H](N)CC(C)C)C(C)C)C(C)C)C(C)C)CSSC[C@@H](C(=O)O)NC1=O | – | RNA-seq, measured: Lgr6 | mouse, traumatic brain injury model, frontal cortex and hippocampus | dose not given | relative to: TBI alone | log2 fold change | -1.39 |
| N=C(N)NCCC[C@H](NC(=O)[C@H](CCCNC(=N)N)NC(=O)[C@H](CCCCN)NC(=O)[C@H](CCCNC(=N)N)NC(=O)[C@H](Cc1ccccc1)NC(=O)[C@H](Cc1ccc(O)cc1)NC(=O)[C@H](CCCNC(=N)N)NC(=O)[C@H](CCCNC(=N)N)NC(=O)[C@H](CCCNC(=N)N)NC(=O)[C@H](CCCNC(=N)N)NC(=O)[C@H](CCCNC(=N)N)NC(=O)[C@H](Cc1ccc(O)cc1)NC(=O)[C@H](CCCNC(=N)N)NC(=O)[C@@H](N)CCCNC(=N)N)C(=O)O | DF-1 | – | – | 5 µM, 12 h | relative to: untreated cells | viability | 101 ± 0.18% |
| CO[C@H]1C[C@@H]2CC[C@@H](C)[C@@](O)(O2)C(=O)C(=O)N2CCCC[C@H]2C(=O)O[C@H]([C@H](C)C[C@@H]2CC[C@@H](OC(=O)NCCOCCOCCOCCOCCOCCOCCOCCOCCC(=O)N3CCc4cc(Cn5nc(-c6ccc7oc(N)nc7c6)c6c(N)ncnc65)ccc4C3)[C@H](OC)C2)C[C@@H](O)[C@H](C)/C=C(\C)[C@@H](O)[C@@H](OC)C(=O)[C@H](C)C[C@H](C)/C=C/C=C/C=C/1C | – | – | patients with advanced solid tumours | intravenous, 1.6 mg/3 mg weekly, any grade | – | incidence of Diarrhea TEAE | 20% |
| CN(C)c1ccc(C(Nc2nc3c(-c4ccc([N+](=O)[O-])cc4)nn(-c4ccccc4)c3s2)P(=O)(Oc2ccccc2)Oc2ccccc2)cc1 (stereo not shown) | Vero cells | SRB | – | 0.01 µM, 10% fetal bovine serum | – | viability | 99.7% |
| Cn1cc2cc(C(F)(F)c3nnc4ccc(-c5cnn(C6CC6)c5)nn34)c(F)cc2n1 | MKN-45 | CCK-8 | – | 0.025 µM, 72 h | relative to: untreated | viability | 7.04% and 6.22% and 6.96% |
| Oc1ccc(C2(c3ccc(O)cc3)c3ccccc3-c3ccccc32)cc1 | HepG2 spheroids | annexin V/PI flow cytometry | – | 40 µM, 24 h | – | viability | 57.9 ± 10.8% |
| O=[N+]([O-])c1ccc(-c2nn(-c3ccccc3)c3sc(NC(c4ccccc4O)P(=O)(Oc4ccccc4)Oc4ccccc4)nc23)cc1 (stereo not shown) | Vero cells | SRB | – | 100 µM, 10% fetal bovine serum | – | viability | 81.1% |
| C[C@H]1CN(c2n[nH]c3nc(N[C@H]4CC[C@H](NS(=O)(=O)CCC(F)(F)F)CC4)ncc23)CCO1 | Polyadenylate-binding protein 4 (Homo sapiens, UniProt Q13310) | Kinobeads competition, measured: PABPC4 | – | 20 µM, unit not given | relative to: vehicle | remaining binding | 1.24 |
| Cc1cc(C)nc(Nc2ncc(C(=O)NCCc3c(C)[nH]c4ccccc34)cn2)c1 | human cryopreserved hepatocytes | – | – | 0.3, 3, 30 µM, 48 h | relative to: vehicle | viability | > 96% |
| COc1cc(Nc2ncc(F)c(Nc3ccc4c(n3)NC(=O)C(C)(C)O4)n2)cc(OC)c1OC | Caspase-9 (CASP9, Homo sapiens, UniProt P55211) | – | – | – | – | IC50 | > 10 µM |
| Cc1ccc(C2=CSC3=NC4=C(CNC/C4=C/c4ccc(Cl)cc4)C(c4ccc(Cl)cc4)N23)cc1 (stereo not shown) | SH-SY5Y | MTT | – | 0.2 to 40 µM, 24 h | – | viability | not toxic |

Some of these lines once more:
| Structure (SMILES) | target or system | assay | test system | setting | scale | endpoint | value |
| --- | --- | --- | --- | --- | --- | --- | --- |
| Cn1cc2cc(C(F)(F)c3nnc4ccc(-c5cnn(C6CC6)c5)nn34)c(F)cc2n1 | MKN-45 | CCK-8 | – | 0.025 µM, 72 h | relative to: untreated | viability | 7.04% and 6.22% and 6.96% |
